Assay results pooled from the literature.
Parts stem from different laboratories: compare values within a part only.

Block 1
Target: Sal-like protein 4, full length isoform A (SALL4, Homo sapiens, UniProt Q9UJQ4, residues 1-1053)
UniProt Q9UJQ4, sequence (whole entry, looked up): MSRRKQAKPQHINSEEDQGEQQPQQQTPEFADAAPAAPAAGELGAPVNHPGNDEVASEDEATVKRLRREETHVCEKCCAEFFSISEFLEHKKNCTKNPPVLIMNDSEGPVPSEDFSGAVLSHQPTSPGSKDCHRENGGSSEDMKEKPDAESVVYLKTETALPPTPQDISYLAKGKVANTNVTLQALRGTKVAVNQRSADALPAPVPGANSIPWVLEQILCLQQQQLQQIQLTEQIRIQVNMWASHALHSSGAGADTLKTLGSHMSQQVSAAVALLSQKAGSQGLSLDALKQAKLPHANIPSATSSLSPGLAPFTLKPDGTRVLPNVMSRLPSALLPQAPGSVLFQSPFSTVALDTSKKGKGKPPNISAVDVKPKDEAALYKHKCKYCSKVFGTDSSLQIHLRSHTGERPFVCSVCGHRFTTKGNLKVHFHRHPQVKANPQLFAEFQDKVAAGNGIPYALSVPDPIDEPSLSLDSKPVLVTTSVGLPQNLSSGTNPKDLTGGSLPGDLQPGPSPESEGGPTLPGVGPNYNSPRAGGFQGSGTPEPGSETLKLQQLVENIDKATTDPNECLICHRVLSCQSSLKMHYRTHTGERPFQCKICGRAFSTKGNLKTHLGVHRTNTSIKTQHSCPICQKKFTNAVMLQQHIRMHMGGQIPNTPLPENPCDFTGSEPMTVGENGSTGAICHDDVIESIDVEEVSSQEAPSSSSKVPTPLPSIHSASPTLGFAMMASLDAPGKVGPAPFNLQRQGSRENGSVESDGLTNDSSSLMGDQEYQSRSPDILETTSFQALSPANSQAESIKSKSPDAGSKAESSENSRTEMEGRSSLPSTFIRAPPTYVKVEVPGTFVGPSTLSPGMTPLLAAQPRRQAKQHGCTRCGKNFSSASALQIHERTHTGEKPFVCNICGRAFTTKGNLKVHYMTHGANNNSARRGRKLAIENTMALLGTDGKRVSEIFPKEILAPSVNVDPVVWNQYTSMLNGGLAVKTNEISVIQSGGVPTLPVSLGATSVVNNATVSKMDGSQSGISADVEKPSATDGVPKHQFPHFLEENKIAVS
Technique: universal PBM
Molecule type: double-stranded DNA, one strand shown
Matrix: in vitro
Tested at: 600 nM
Setting: 8-mer, flanks averaged, mean of replicates
Reading: higher = stronger binding
For `GTCTATGA`, the E-score was 0.136.
With `AGCGATTA` the E-score was 0.0929.
`GGATCCGA` gave an E-score of -0.242.
For `CGTCCGCA`, the E-score was -0.193.
The E-score of `CATTCACC` is reported as -0.00575.
`TACAGGGA` has an E-score of -0.171.
With `AACGTCCC` the E-score was -0.157.
`CGAGTAGC` gave an E-score of -0.0604.
For `ACACCACT`, the E-score was 0.0729.
For `GATAGCCC`, the E-score was -0.22.
For `AGCACGTG`, the E-score was -0.0261.
For `GCTGCTAA`, the E-score was -0.18.
The E-score of `CCTCTATA` is reported as 0.122.
`GCGTTTGA` has an E-score of -0.0266.
`ACTTCGAT` gave an E-score of 0.102.
The E-score of `AGAACTAG` is reported as -0.0379.
With `CAGGCAAC` the E-score was -0.121.
With `GTCAACAC` the E-score was 0.0313.
`AAGAGTGA` gave an E-score of 0.0981.
For `GGTTCATA`, the E-score was 0.205.
`CTGGTCCA` gave an E-score of -0.247.

Block 2
Target: Ras GTPase-activating protein-binding protein 1, full length (G3BP1, Homo sapiens, UniProt Q13283)
UniProt Q13283, sequence (whole entry, looked up): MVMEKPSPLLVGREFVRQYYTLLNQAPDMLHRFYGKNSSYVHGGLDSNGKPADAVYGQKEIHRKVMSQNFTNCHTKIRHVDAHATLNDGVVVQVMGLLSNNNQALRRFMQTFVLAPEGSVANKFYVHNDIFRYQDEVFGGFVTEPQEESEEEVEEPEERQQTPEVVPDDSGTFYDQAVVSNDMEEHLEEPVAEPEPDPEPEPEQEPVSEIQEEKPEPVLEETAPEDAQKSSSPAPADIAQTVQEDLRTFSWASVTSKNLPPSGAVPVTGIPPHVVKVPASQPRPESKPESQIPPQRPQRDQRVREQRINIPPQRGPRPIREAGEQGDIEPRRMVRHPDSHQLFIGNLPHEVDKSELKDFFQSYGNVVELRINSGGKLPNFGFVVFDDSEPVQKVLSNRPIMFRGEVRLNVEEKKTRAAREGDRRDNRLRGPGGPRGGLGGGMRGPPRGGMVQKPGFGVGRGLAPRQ
Technique: RNA Bind-n-Seq
Molecule type: RNA
Matrix: in vitro
Tested at: 200 nM
Setting: whole 134-nt RNA, ends assumed
Together with: 150 mM LiCl
Baseline: input library
Reading: higher = stronger binding
All molecules: 7-deaza-guanosine replaces G
Shared flanks, not repeated: GGGAGUUCUACAGUCCGACGAUC … UGGAAUUCUCGGGUGUCAAGG
With `UGUUGAAAUGGGACAGUUGGCAGCGGCUCUGAUGAGCCCGAGAAGAGGCCUGCCCUUGGGUGCGGAGUCUCCCUCCGCACGAUGCUCCCA` the log2 enrichment was 0.05.
With `UCCUGUGCUACACAUCGUAUGUACCGAAUCGGUUUUUUUGGAAAAAAAGGUUUUUUUGGAAAGUAUUAUGUUACGCCGUUCGGAUCUGCA` the log2 enrichment was -2.3.
With `CCUGUGCUACACAUCGUAUGUACCGAAUCGGGAAAAAAAGGGUUUUUGGGAAAAAAAGGGAAAGUAUUAUGUUACGCCGUUCGGAUCUGC` the log2 enrichment was -0.865.
`UCCUGUGCUACACAUCGUAUGUACCGAAUCGGGGCCCCCCGGCCCCCCGGGCCCCCCGGAAAGUAUUAUGUUACGCCGUUCGGAUCUGCA` gave a log2 enrichment of 0.0708.
`AGUCCUGUGCUACACAUCGUAUGUACCGAAUCGGGAAAAAGGGAGGGUUUUUUUGGGAAAGUAUUAUGUUACGCCGUUCGGAUCUGCACU` has a log2 enrichment of -1.19.
`AGUCCUGUGCUACACAUCGUAUGUACCGAAUCGGGGAAAAGGGGAAAAGGAAAAGGGGAAAGUAUUAUGUUACGCCGUUCGGAUCUGCAC` has a log2 enrichment of 0.204.
With `CAAGUCCUGUGCUACACAUCGUAUGUACCGAAUCGGGAAAGGAAAGGGGAAAGGGAAAGUAUUAUGUUACGCCGUUCGGAUCUGCACUUC` the log2 enrichment was 0.0609.
The log2 enrichment of `AAGUCCUGUGCUACACAUCGUAUGUACCGAAUCGGGUUUGGGGUUUGGGUUUGGGGAAAGUAUUAUGUUACGCCGUUCGGAUCUGCACUU` is reported as -0.412.

Block 3
Target: Histone acetyltransferase KAT6A, winged helix 2, GST fusion (KAT6A, Homo sapiens, UniProt Q92794, residues 85-181)
Technique: protein binding microarray
Molecule type: double-stranded DNA, one strand shown
Matrix: in vitro
Tested at: not given
Setting: 8-mer, flanks averaged, mean of 2 arrays, mostly near background
Baseline: not given
Reading: higher = stronger binding
Residues (chain): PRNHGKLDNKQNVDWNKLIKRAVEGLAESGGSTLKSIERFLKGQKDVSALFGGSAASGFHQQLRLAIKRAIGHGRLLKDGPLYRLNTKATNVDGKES
For `ATTTGGTA`, the E-score was 0.0305.
With `CTCTACTA` the E-score was -0.0417.
For `ACTTTTGC`, the E-score was 0.0885.
For `GAATACCA`, the E-score was 0.0154.
`GCTACTCA` has an E-score of 0.136.
The E-score of `GAGTAGGA` is reported as -0.0555.
The E-score of `AATTCCCG` is reported as 0.14.
With `AGGAAAAA` the E-score was 0.137.
`GTATATGA` gave an E-score of -0.00195.
The E-score of `ATTAGTTA` is reported as 0.0898.
For `ATCTTCAC`, the E-score was 0.045.
`CACTACCG` gave an E-score of -0.0734.
The E-score of `GTTGGACA` is reported as -0.0164.
`AGAAGGAG` has an E-score of -0.24.
`AACGTCCT` gave an E-score of -0.159.
`CTCGTTAA` has an E-score of -0.0889.
`TCCCACGA` gave an E-score of 0.148.
With `GGCCCGCC` the E-score was 0.042.
`CGTAAGGC` gave an E-score of -0.263.
The E-score of `ATATGTAG` is reported as 0.0297.
With `CTGGCTCA` the E-score was 0.0404.
With `ACTACTCG` the E-score was -0.102.
`AGGTGCTG` gave an E-score of 0.0933.
`GATTTTCA` has an E-score of 0.00187.
`ATCACAAC` has an E-score of 0.0503.

Block 4
Target: Interferon regulatory factor 5, full length, phosphomimetic (IRF5, Homo sapiens, UniProt Q13568-2, residues 1-514, S451D/S453D/S456D/S462D)
Technique: protein-binding microarray
Molecule type: double-stranded DNA, one strand shown
Matrix: in vitro
Tested at: 940 nM top
Setting: 60-bp whole probe
Together with: salmon DNA 0.4 mg/ml
Baseline: random background probes
Reading: higher = stronger binding
Shared flanks, not repeated: GCCTAGCAC … GTCTTGATTCGCTTGACGCTGCTG
`TATAAATTATCTTTAATCCTGTGCTAG`: “fitted relative affinity” 0.265 z-score.
`TTAGATATCAGACTCGATTAGTGCTAG` — result for “fitted relative affinity”: -0.116 z-score.
`TCAACTCTTTCTGTCAGACTGTGCTAG`: “fitted relative affinity” 1.26 z-score.
`ACCACTCCAGTTCTGGGAAAGTGCTAG`: “fitted relative affinity” -0.0224 z-score.
`TTAGATCTCAGTATCGATTGGTGCTAG` — result for “fitted relative affinity”: 4.79 z-score.
Under “fitted relative affinity”, `TTAGGTGTCCTTTTCCTTTAGTGCTAG` is recorded as 0.385 z-score.
`TCTCCTCTAGGTTCTCTGAGAGTGCTA` — result for “fitted relative affinity”: 1.3 z-score.
`GACGGATTGGGTTTCGGGACGTGCTAG` — result for “fitted relative affinity”: 3.54 z-score.
For `CCATTTTGGTTTTCTCTATTGGTGCTA`, “fitted relative affinity” read 1.41 z-score.
`GTAGGTATCGACTTTCGGTTAGTGCTA`: “fitted relative affinity” 5.95 z-score.
Under “fitted relative affinity”, `TTAGGTATCGGACTAGGTTAGTGCTAG` is recorded as 3.82 z-score.
For `TCATGTTTTTTTCTATAACTGTGCTAG`, “fitted relative affinity” read 1.21 z-score.
`GACGGTTTAGGTTCCGGGACGTGCTAG` — result for “fitted relative affinity”: 0.706 z-score.
For `TTAGGTCTCGGTATCGGATAGTGCTAG`, “fitted relative affinity” read 4.95 z-score.
Under “fitted relative affinity”, `TTAGGTTTCGGTATCGGGTAGTGCTAG` is recorded as 15 z-score.
`AGAATTTCCACTTTGACTTAGTGCTAG`: “fitted relative affinity” 0.509 z-score.
`GAGGGTGTTCTTTTCTGTTGGTGCTAG` — result for “fitted relative affinity”: 0.449 z-score.
`TCAGTGATCAGTCTGATACTGTGCTAG`: “fitted relative affinity” -0.266 z-score.
Under “fitted relative affinity”, `CCCCCAATCTCTCTTCACATGTGCTAG` is recorded as 1.37 z-score.

A few entries again (block 3):
`AGAAGGAG` has an E-score of -0.24.
`AACGTCCT` gave an E-score of -0.159.
`CTCGTTAA` has an E-score of -0.0889.
`TCCCACGA` gave an E-score of 0.148.
With `GGCCCGCC` the E-score was 0.042.
`CGTAAGGC` gave an E-score of -0.263.
The E-score of `ATATGTAG` is reported as 0.0297.
With `CTGGCTCA` the E-score was 0.0404.
With `ACTACTCG` the E-score was -0.102.
